Measured values from different studies.
Numbered parts are unrelated; each lists some results of a single study. Changes are numbered by the printed parent chain.

Study 1 — method: RNA Bind-n-Seq; form: RNA; matrix: in vitro; concentration: 200 nM; setting: whole 134-nt RNA, ends assumed; together with: 150 mM LiCl; baseline: input library; direction: higher = stronger binding; each molecule: 7-deaza-guanosine replaces G
Target: Ras GTPase-activating protein-binding protein 1, full length (G3BP1, Homo sapiens, UniProt Q13283)
Chain of UniProt Q13283 (whole entry, looked up): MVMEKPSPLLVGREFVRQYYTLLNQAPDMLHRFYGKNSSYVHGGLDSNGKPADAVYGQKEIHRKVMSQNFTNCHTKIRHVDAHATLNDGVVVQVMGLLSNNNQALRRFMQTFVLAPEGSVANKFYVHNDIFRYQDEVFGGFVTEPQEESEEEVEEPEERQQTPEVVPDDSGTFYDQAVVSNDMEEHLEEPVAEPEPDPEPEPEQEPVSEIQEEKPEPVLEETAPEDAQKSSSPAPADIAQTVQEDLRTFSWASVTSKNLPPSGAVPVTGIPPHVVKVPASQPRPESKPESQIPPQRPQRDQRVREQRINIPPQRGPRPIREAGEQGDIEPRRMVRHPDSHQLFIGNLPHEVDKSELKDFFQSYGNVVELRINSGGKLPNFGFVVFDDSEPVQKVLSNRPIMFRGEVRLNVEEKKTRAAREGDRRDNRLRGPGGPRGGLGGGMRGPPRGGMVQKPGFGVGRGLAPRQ
For `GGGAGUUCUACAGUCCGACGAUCUCAAGUCCUGUGCUACACAUCGUAUGUACCGAAUCGGUGGAAAAAAAGGUUUGGAAAGUAUUAUGUUACGCCGUUCGGAUCUGCACUUCCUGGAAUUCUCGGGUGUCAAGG`, the log2 enrichment was -1.15.
For `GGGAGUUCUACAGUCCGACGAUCGUCCUGUGCUACACAUCGUAUGUACCGAAUCGGGUUUUUUGGUUUUUUGGUUUUUUGGAAAGUAUUAUGUUACGCCGUUCGGAUCUGCACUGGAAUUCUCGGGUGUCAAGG`, the log2 enrichment was -1.18.
`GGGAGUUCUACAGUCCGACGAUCUGUGCUACACAUCGUAUGUACCGAAUCGGGGUUUUUGGGGUUUUUUUGGGGUUUUUUUGGGGAAAGUAUUAUGUUACGCCGUUCGGAUCUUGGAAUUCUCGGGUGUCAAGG` gave a log2 enrichment of 1.84.
With `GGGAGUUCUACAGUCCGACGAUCAAGUCCUGUGCUACACAUCGUAUGUACCGAAUCGGAAAAGGAAAAGGGGAAAAGGGAAAGUAUUAUGUUACGCCGUUCGGAUCUGCACUUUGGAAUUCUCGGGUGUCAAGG` the log2 enrichment was -0.249.
The log2 enrichment of `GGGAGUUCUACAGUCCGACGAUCCCUCAAGUCCUGUGCUACACAUCGUAUGUACCGAAUCGGGGUGGUGGUGGGGAAAGUAUUAUGUUACGCCGUUCGGAUCUGCACUUCCAGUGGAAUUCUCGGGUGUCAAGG` is reported as 0.0439.
With `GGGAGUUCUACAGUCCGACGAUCUGUGCUACACAUCGUAUGUACCGAAUCGGGGAAAAAGGGGUUUUUUUGGGGUUUUUUUGGGGAAAGUAUUAUGUUACGCCGUUCGGAUCUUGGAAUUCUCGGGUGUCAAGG` the log2 enrichment was -1.19.
With `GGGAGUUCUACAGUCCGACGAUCUCCUGUGCUACACAUCGUAUGUACCGAAUCGGGGUUUUUGGGGAAAAAAAGGGGAGGGGAAAGUAUUAUGUUACGCCGUUCGGAUCUGCAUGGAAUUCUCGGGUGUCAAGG` the log2 enrichment was 0.196.
With `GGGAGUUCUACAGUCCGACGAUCCAAGUCCUGUGCUACACAUCGUAUGUACCGAAUCGGUUUGGGGUUUGGGGUUUGGGAAAGUAUUAUGUUACGCCGUUCGGAUCUGCACUUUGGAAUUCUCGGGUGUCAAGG` the log2 enrichment was -1.48.

Study 2 — target: CCND3, cyclin fold, Cln2 fusion (human); method: yeast growth competition, sequencing; matrix: yeast; setting: weak parent motif; baseline: not given; direction: higher = stronger binding
Starting sequence: BRCA2 docking peptide (human); PSIKRNLLNEFDR; partner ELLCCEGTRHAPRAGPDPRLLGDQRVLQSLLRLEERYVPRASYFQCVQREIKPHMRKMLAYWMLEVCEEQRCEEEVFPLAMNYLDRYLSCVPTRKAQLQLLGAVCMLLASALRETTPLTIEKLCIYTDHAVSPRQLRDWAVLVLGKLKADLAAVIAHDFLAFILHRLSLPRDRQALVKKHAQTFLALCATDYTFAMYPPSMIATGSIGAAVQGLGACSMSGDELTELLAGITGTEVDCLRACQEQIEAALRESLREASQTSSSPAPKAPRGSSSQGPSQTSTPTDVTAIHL
`DSIKRNLLNEFDR [P1D]` — result for “normalised enrichment score”: 0.114.
Under “normalised enrichment score”, `PSIKRNLLIEFDR [N9I]` is recorded as 0.214.
`PSKKRNLLNEFDR [I3K]` — result for “normalised enrichment score”: 0.152.
`PSIKRHLLNEFDR [N6H]` — result for “normalised enrichment score”: 0.165.
For `PSCKRNLLNEFDR [I3C]`, “normalised enrichment score” read 0.166.
For `PSIKPNLLNEFDR [R5P]`, “normalised enrichment score” read 0.119.
For `PSIKRNLLPEFDR [N9P]`, “normalised enrichment score” read 0.144.
`PSIKRNLWNEFDR [L8W]`: “normalised enrichment score” 0.0527.
`PSIKRNLLQEFDR [N9Q]`: “normalised enrichment score” 0.159.
`PSIWRNLLNEFDR [K4W]`: “normalised enrichment score” -0.0659.
Under “normalised enrichment score”, `PSIKRNLLNEFVR [D12V]` is recorded as 0.182.
`PSIKMNLLNEFDR [R5M]` — result for “normalised enrichment score”: 0.135.
`PSIKRNLLNEFDF [R13F]`: “normalised enrichment score” 0.0936.
`PSIKRNLLNEFFR [D12F]`: “normalised enrichment score” 0.173.
`PSIGRNLLNEFDR [K4G]`: “normalised enrichment score” 0.0268.
For `PSIKRLLLNEFDR [N6L]`, “normalised enrichment score” read 0.103.
`PSIKRSLLNEFDR [N6S]` — result for “normalised enrichment score”: 0.129.
`PSIKCNLLNEFDR [R5C]` — result for “normalised enrichment score”: 0.21.
For `PVIKRNLLNEFDR [S2V]`, “normalised enrichment score” read 0.0969.
`PSIKRNLLDEFDR [N9D]`: “normalised enrichment score” 0.173.

Study 3 — method: DHFR PCA, deep sequencing; matrix: yeast; together with: (+)-ABA 200 µM; baseline: wild-type fitted maximum; direction: higher = stronger binding
Target: ABI1, truncated, D143A, DHFR fusion (Arabidopsis thaliana)
Setting: methotrexate growth selection, single substitutions
Starting sequence: PYL1, truncated, DHFR fusion (Arabidopsis thaliana); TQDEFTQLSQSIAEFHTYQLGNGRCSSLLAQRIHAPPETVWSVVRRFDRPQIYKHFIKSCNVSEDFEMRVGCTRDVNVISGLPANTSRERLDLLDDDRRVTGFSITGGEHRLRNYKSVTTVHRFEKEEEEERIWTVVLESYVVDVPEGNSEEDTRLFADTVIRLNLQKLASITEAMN
`G71N` — result for “relative binding score”: 83.3%.
`V70N` — result for “relative binding score”: 75.2%.
Under “relative binding score”, `K116Q` is recorded as 109%.
For `N85D`, “relative binding score” read 98.1%.
Under “relative binding score”, `R24T` is recorded as 96.3%.
`L91Y` — result for “relative binding score”: 0.894%.
For `A35L`, “relative binding score” read 18.5%.
For `R99D`, “relative binding score” read 23.9%.
`A35G` — result for “relative binding score”: 72.7%.
`L8Y` — result for “relative binding score”: 101%.
Under “relative binding score”, `Y115P` is recorded as -1.87%.
For `S140W`, “relative binding score” read 2.05%.
Under “relative binding score”, `T86K` is recorded as 93.9%.
For `L169H`, “relative binding score” read -8.61%.
Under “relative binding score”, `L112N` is recorded as -3.19%.
`H55K` — result for “relative binding score”: 105%.
`V44F` — result for “relative binding score”: -5.23%.

Study 4 — target: FOSL1, bZIP domain (human); method: DHFR protein complementation; matrix: yeast; baseline: wild-type JUN-FOS pair; direction: higher = stronger binding
Setting: single substitutions, most at no-binding floor
Starting sequence: JUN, bZIP domain (human); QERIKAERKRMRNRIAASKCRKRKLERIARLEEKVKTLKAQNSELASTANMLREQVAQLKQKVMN; partner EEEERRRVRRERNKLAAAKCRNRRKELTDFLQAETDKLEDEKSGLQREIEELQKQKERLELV
With `T37R` the binding fitness was -0.382 natural log.
`K36H` has a binding fitness of -0.601 natural log.
`K36W` gave a binding fitness of -0.787 natural log.
The binding fitness of `E44Q` is reported as -0.426 natural log.
With `T48V` the binding fitness was -0.385 natural log.
For `T48R`, the binding fitness was -0.244 natural log.
`N42Y` gave a binding fitness of -1.18 natural log.
With `E54G` the binding fitness was -0.548 natural log.
`I28V` gave a binding fitness of -0.416 natural log.
With `Q55H` the binding fitness was -0.571 natural log.

Repeated from above (study 3):
Under “relative binding score”, `T86K` is recorded as 93.9%.
For `S140W`, “relative binding score” read 2.05%.
Under “relative binding score”, `R24T` is recorded as 96.3%.
`A35G` — result for “relative binding score”: 72.7%.
`H55K` — result for “relative binding score”: 105%.
